Measured values collected from several papers.
Each line is one published result; not all experiments were run side by side. Numbers after ± are the reported error.
UniProt P78417, sequence (whole entry, looked up): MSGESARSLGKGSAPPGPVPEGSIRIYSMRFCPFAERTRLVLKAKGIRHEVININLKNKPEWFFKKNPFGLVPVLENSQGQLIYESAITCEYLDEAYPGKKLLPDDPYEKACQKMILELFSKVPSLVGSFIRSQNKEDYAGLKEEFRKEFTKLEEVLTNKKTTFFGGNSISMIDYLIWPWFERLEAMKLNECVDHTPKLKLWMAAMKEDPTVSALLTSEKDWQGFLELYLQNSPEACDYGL
UniProt Q05655, sequence (whole entry, looked up): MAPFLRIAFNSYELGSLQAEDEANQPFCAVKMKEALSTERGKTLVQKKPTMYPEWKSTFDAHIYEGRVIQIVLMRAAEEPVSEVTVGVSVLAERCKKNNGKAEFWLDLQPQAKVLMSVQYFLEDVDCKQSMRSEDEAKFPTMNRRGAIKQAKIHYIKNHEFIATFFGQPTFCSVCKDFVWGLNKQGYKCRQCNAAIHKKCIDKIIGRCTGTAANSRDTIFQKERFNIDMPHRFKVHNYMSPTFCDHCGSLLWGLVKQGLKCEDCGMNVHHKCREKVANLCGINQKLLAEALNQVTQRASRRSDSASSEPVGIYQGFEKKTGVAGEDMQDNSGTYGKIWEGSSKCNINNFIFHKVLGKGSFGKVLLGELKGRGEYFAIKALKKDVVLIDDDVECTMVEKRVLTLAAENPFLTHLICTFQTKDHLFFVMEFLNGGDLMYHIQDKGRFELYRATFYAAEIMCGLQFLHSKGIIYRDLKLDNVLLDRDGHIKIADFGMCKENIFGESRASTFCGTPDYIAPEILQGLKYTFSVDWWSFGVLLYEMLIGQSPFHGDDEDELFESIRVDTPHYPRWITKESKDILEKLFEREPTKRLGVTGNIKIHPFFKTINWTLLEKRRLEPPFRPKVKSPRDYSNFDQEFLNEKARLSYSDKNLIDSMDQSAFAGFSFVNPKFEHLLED
UniProt P04150, sequence (whole entry, looked up): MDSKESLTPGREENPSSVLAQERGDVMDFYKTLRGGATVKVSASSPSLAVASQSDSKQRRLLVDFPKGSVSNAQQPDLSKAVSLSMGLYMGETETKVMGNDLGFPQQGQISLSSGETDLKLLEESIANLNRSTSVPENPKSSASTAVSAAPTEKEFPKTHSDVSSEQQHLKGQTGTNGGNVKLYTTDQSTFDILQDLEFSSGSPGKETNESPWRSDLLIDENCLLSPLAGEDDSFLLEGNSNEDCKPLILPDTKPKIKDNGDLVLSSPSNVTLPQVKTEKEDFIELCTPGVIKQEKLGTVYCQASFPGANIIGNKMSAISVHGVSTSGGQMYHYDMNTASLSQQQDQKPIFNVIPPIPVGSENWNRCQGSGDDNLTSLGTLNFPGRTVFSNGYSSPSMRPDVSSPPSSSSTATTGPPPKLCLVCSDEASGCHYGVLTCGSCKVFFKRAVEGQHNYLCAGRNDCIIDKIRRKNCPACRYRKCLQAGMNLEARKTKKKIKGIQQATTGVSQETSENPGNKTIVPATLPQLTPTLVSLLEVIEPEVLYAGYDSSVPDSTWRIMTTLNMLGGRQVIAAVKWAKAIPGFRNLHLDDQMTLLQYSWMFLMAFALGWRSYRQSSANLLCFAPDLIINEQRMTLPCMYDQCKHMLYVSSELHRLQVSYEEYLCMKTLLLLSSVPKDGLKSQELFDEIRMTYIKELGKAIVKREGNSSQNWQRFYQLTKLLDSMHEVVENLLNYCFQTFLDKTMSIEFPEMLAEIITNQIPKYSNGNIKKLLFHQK

C[C@]1(CO)Cc2ncn(-c3ccc(C#N)c(Cl)c3)c2C(=O)O1  subjects with drug-related headache (human; 80 mg single dose): 0%
COc1cc2c(Oc3ccc4[nH]c(C)cc4c3F)ccnc2cc1OCC1(N)CC1  Thrombocytopenia incidence (paediatric recurrent refractory sarcoma; 12 mg): 18.2%
CCN(CC)CCNC(=O)c1ccc(-c2nc(CN3CCc4ccccc43)c(C)o2)cc1  maximum response (Vero-E6; CellTiter-Glo ATP; 72 h, second round 5-point; baseline: DMSO 0%, hyamine -100%, more negative, more toxic): -2.86%
CC(C)[C@@H]1NC(=O)[C@H](Cc2ccccc2)NC(=O)[C@@H]2NC(=O)[C@H](Cc3ccccc3)NC(=O)[C@@H]3CCCN3C(=O)CNC(=O)[C@H](Cc3ccccc3)NC(=O)[C@@H]3CNCCCC[C@@H](C(=O)O)NC(=O)[C@@H]4NC(=O)[C@H](CC(N)=O)NC(=O)CNC(=O)[C@H]([C@@H](O)C(=O)O)NC(=O)[C@H](CSC[C@@H](NC(=O)[C@H](CCC(N)=O)NC(=O)[C@H](CCCCNC(=O)c5ccc(NN)nc5)NC(=O)[C@@H](N)CS[C@H]4C)C(=O)N[C@@H](CS[C@H]2C)C(=O)N3)NC1=O [technetium-99m labelled]  tissue uptake (rat, saline control, kidneys; intravenous, 2 h after tracer, tracer 24 h after reperfusion): 5.94 ± 0.49 %ID/g
COc1ccc(CC(=O)NC2CCN(Cc3ccc(-c4ccccc4OC)cc3)C2)cc1 (stereo not drawn)  maximum response (Vero-E6; CellTiter-Glo ATP; 72 h, retest 8-point duplicates; baseline: DMSO 0%, hyamine -100%, more negative, more toxic): -7.42%
COc1cc(Nc2ncc(F)c(Nc3ccc4c(n3)NC(=O)C(C)(C)O4)n2)cc(OC)c1OC  IC50 (Glucocorticoid receptor (NR3C1, Homo sapiens, UniProt P04150)): > 10 µM
CN1CC[C@@H](c2c(O)cc(O)c3c(=O)cc(-c4ccc(C(F)(F)F)cc4Cl)oc23)[C@@H]1CO  patients with adverse event (refers to: Hypotension; relapsed AML; oral, 150 mg, grade 3-4, intermittent dosing): 25%
CC(=O)c1c(C)c2cnc(Nc3ccc(C4CCN(CCS(C)(=O)=O)CC4)cn3)nc2n(C2CCCC2)c1=O  AUC(0-inf) (human patients, plasma; oral, 75 mg twice daily, day 21 multiple doses, added: fulvestrant): 1280 ng·h/mL
O=C1c2c(O)c(=O)ccn2N([C@@H]2c3ccccc3SCc3c2ccc(F)c3F)[C@@H]2COCCN12  plasma concentration (BALB/c mice, plasma; oral, 0.5 mg/kg baloxavir marboxil, 1 h): 5.05 ng/mL
CC(=O)N1CCC(C(=O)N2CCN3C(=O)c4cc(-c5ccccc5)ccc4NC(=O)C3C2)CC1 (stereo not drawn)  revertants per plate (Salmonella typhimurium; TA98; 500 µg/plate, added: rat liver S9): 42.5
O=C(CCc1ccc(CC2CCN(Cc3c[nH]c4ccccc34)CC2)cc1)N1CCCC1  cytotoxicity efficacy (Vero-E6; CellTiter-Glo ATP; concentration not given, 72 h, second round 5-point; baseline: DMSO 0%, hyamine -100%, more negative, more toxic): 0%
CC(C)C[C@@H]1NC(=O)[C@H](CC(C)C)NC(=O)[C@H](Cc2c[nH]c3ccccc23)NC(=O)[C@H](CO)NC(=O)[C@H](Cc2c[nH]c3ccccc23)NC(=O)[C@@H]2CCCN2C(=O)[C@H](CC(C)C)NC(=O)[C@H](Cc2c[nH]cn2)NC(=O)[C@@H]2CCCN2C(=O)[C@H](CC(N)=O)NC(=O)[C@H](C)NC(=O)[C@H](Cc2ccc(O)cc2)NC(=O)[C@H](CS)NC(=O)[C@H](CCCCNC(=O)CN2CCN(CC(=O)O)CCN(CC(=O)O)CCN(CC(=O)O)CC2)NC1=O [lutetium-177 labelled]  tissue uptake (Balb/c mouse, female, 4T1 tumour, spleen; intravenous, 3.7 MBq, 24 h): 0.04 %ID
CO[C@H]1C[C@@H]2CC[C@@H](C)[C@@](O)(O2)C(=O)C(=O)N2CCCC[C@H]2C(=O)O[C@H]([C@H](C)C[C@@H]2CC[C@@H](OC(=O)NCCOCCOCCOCCOCCOCCOCCOCCOCCC(=O)N3CCc4cc(Cn5nc(-c6ccc7oc(N)nc7c6)c6c(N)ncnc65)ccc4C3)[C@H](OC)C2)C[C@@H](O)[C@H](C)/C=C(\C)[C@@H](O)[C@@H](OC)C(=O)[C@H](C)C[C@H](C)/C=C/C=C/C=C/1C  TRAE incidence (phase 1 dose escalation, refers to: headache; advanced solid tumour patients; intravenous, 6 mg weekly, grade ≥3): 0%
C[C@H]1CN(c2n[nH]c3nc(N[C@H]4CC[C@H](NS(=O)(=O)CCC(F)(F)F)CC4)ncc23)CCO1  relative abundance (Protein kinase C delta type (PRKCD, Homo sapiens, UniProt Q05655); inhibitor, Kinobeads competition profiling; 0.032 µM; baseline: vehicle): 1.04
O=C(c1ccc(Cl)cc1)N1CCN2C(=O)N(OC(=O)N3CCOc4ccccc43)C(=O)C2C1 (stereo not drawn)  mean protein ratio (Glutathione S-transferase omega-1 (GSTO1, Homo sapiens, UniProt P78417); MS-based ABPP; SW-620 conditioned medium; 10 µM; baseline: compound over DMSO, lower = more inhibition): 1.12

Repeated from above:
COc1ccc(CC(=O)NC2CCN(Cc3ccc(-c4ccccc4OC)cc3)C2)cc1 (stereo not drawn)  maximum response (Vero-E6; CellTiter-Glo ATP; 72 h, retest 8-point duplicates; baseline: DMSO 0%, hyamine -100%, more negative, more toxic): -7.42%
